Values quoted from earlier work that unrelated publications cite.
Each numbered part shows a few of the values that one paper quotes. Numbers after ± are the reported error.

Block 1 — organism: Cryptosporidium parvum; method: high-throughput screen; tested at: concentration not given; measurement: activity
Cc1cccc(C)c1NC(=O)C(C)N (centres unmarked): inactive
CSc1nc2cc(Cl)c(Oc3cccc(Cl)c3Cl)cc2[nH]1: inactive
Nc1ncn([C@@H]2O[C@H](CO)[C@@H](O)[C@H]2O)c(=O)n1: inactive
COc1cc(C(=O)NS(=O)(=O)c2ccccc2C)ccc1Cc1cn(C)c2ccc(NC(=O)OC3CCCC3)cc12: inactive
C[C@]12CC[C@@H]3c4ccc(O)cc4CC[C@H]3[C@@H]1CC[C@@H]2O: inactive
CN(C)CCc1c[nH]c2ccc(Cn3cncn3)cc12: inactive
CO/N=C(\C(=O)N[C@@H]1C(=O)N2C(C(=O)O)=C(COC(C)=O)CS[C@H]12)c1csc(N)n1: inactive
Clc1ccccc1C(c1ccccc1)(c1ccccc1)n1ccnc1: inactive
Br.O=C1CC2(CCCC2)CC(=O)N1CCNCC1COc2ccccc2O1 (centres unmarked): inactive
CC(CCCCC(=O)Nc1ccc(C(F)(F)F)cc1)NCCc1cnc[nH]1 (centres unmarked): inactive
Cc1noc(NS(=O)(=O)c2ccc(N)cc2)c1C: inactive
Nc1c2c(nc3c1CCC3)CCCC2: inactive
CCCN1CCCC[C@H]1C(=O)Nc1c(C)cccc1C: inactive
CC1=NS(=O)(=O)c2cc(Cl)ccc2N1: inactive
CC(COc1ccccc1Cc1ccccc1)N1CCCCC1.O=P(O)(O)O (centres unmarked): inactive
C[C@H]1[C@H](OC(=O)CCC(=O)O)O[C@@H]2O[C@@]3(C)CC[C@H]4[C@H](C)CC[C@@H]1[C@@]24OO3: inactive
COc1nc(C)nc(Cl)c1NC1=NCCN1.Cl: inactive
C=C1/C(=C\C=C2/CCC[C@]3(C)[C@@H]([C@H](C)CCCC(C)(C)O)CC[C@@H]23)C[C@@H](O)C[C@@H]1O: inactive
CN1[C@@H]2C[C@@H](OC(=O)[C@H](CO)c3ccccc3)C[C@H]1[C@@H]1O[C@@H]12: inactive
N[C@@H]1CON=C1O: inactive
c1ccc(CC2=NCCN2)cc1: inactive
COc1ccc(CN2CCN(C(c3ccc(F)cc3)c3ccc(F)cc3)CC2)c(OC)c1OC.Cl.Cl: inactive
c1ccc2[nH]c(-c3cscn3)nc2c1: inactive
CC(=O)CC(c1ccccc1)c1c(O)c2ccccc2oc1=O (centres unmarked): inactive
CC1(C)S[C@@H]2[C@H](NC(=O)Cc3ccccc3)C(=O)N2[C@H]1C(=O)[O-].[K+]: inactive

Single results of other studies
CC(O)C(C)n1ncn(-c2ccc(N3CCN(c4ccc(OCC5COC(Cn6cncn6)(c6ccc(Cl)cc6Cl)O5)cc4)CC3)cc2)c1=O (centres unmarked)
Km (CYP3A4 human; substrate): 0.027 µM

O=C(O)c1cc(-c2ccc(C3CCNCC3)cc2)c2ccc(-c3ccc(C(F)(F)F)cc3)cc2c1
IC50 (HRH2; radioligand binding; 10 µM): 1.39 µM

OB1OCc2cc(F)ccc21
residence time (leucyl-tRNA synthetase, Saccharomyces cerevisiae): ~6 h

N[C@H]1C[C@@]1(F)c1ccc(F)cc1
IC50 (tyramine oxidase (Arthrobacter sp.); enzyme activity, inhibitor; pH 7.2, literature data, together with: benzylamine 0.6 mM substrate): 75 µM

CC(C)c1cc(Oc2c(Cl)cc(-n3nc(C#N)c(=O)[nH]c3=O)cc2Cl)n[nH]c1=O
fibrosis improvement by one stage (human, MASH patients; dose not given; reference: patients): ≤ 26%

O=C(O)CN1Cc2cccc(n2)CN(CC(=O)O)Cc2cccc(n2)C1
log KHL (protonation constant; 0.1 M KCl): 9.57

NCc1ccc(S(N)(=O)=O)cc1
pKa (refers to: sulfonamide group): 10.1

CN(C)c1ccc(C(=O)N(CC(=O)NCc2ccccc2)Cc2ccc(C(=O)Nc3ccccc3N)cc2)cc1
IC50 (A2780; cell viability, MTT; 72 h): 4.33 ± 0.32 µM

NC1(C(=O)N[C@@H](CCO)c2ccc(Cl)cc2)CCN(c2nc[nH]c3nccc2-3)CC1
half-life (human): 8 h

O=C(Cc1ccccc1)Nc1nnc(N2C[C@H]3C[C@@H]2CN3c2cccnn2)s1
IC50 (GLS; cell-based): 0.011 µM

CCC(C)n1ncn(-c2ccc(N3CCN(c4ccc(OCC5COC(Cn6cncn6)(c6ccc(Cl)cc6Cl)O5)cc4)CC3)cc2)c1=O (centres unmarked)
log P (octanol/water): 4.47

CCN(c1cc(-c2ccc(CN3CCOCC3)cc2)cc(C(=O)NCc2c(C)cc(C)[nH]c2=O)c1C)C1CCOCC1
objective response rate (human patients, EZH2-mutated, relapsed or refractory follicular lymphoma; dose not given): 77%

COc1cc2c(=O)n(CCO)c3c4cc5c(cc4ncc3c2cc1OC)OCO5
IC50 (CPT-K5; cytotoxicity): > 10 µM

CCc1c(N(CC)C2CCOCC2)cc2oc(CN3CCCCC3)cc2c1C(=O)NCc1c(C)cc(C)[nH]c1=O
decreased white cell count incidence (patients; dose not given): 40%

CCN(CC)CCCCNc1ncc2cc(-c3cc(OC)cc(OC)c3)c(NC(=O)NC(C)(C)C)nc2n1
IC50 (c-KIT; inhibitor): > 1 µM

O=C(O)CN(CC(=O)O)[C@H]1CCCC[C@@H]1N(CC(=O)O)Cc1ccccn1
log K HL protonation constant: 10.2

NS(=O)(=O)c1ccccc1
pKa (refers to: sulfonamide group): 10

COc1cccc(NC(=O)c2nc3scc(CN(C)Cc4ccccc4)c3c(=O)[nH]2)c1
IC50 (MMP13 (human); enzyme activity): 0.039 µM

N[C@@H]1C[C@]1(F)c1ccccc1
IC50 (tyramine oxidase (Arthrobacter sp.); enzyme activity, inhibitor; pH 7.2, literature data, together with: benzylamine 0.6 mM substrate): 190 µM

Cc1c[nH]c(/C=C2\C(=O)Nc3ccccc32)c1CCC(=O)O
IC50 (ERK1/2; inhibitor): 10 to 20 µM

O=c1[nH]c2nonc2cc1Nc1c(F)c(F)c(F)c(F)c1F
half-life (mouse): 4.4 h

CS(=O)(=O)CCNCc1ccc(-c2ccc3ncnc(Nc4ccc(OCc5cccc(F)c5)c(Cl)c4)c3c2)o1
AUC(tau) (human, plasma; 1250 mg/day, steady state): 36200 ng·h/mL

COc1cc2c(cc1OC)[C@H]1C[C@@H](OC(=O)[C@@H](N)C(C)C)[C@H](CC(C)C)CN1CC2
therapeutic concentration (human): 2190 nM

Nc1ccccc1NC(=O)c1ccc(CNC(=O)OCc2cccnc2)cc1
IC50 (HEK293; cell viability, MTT): 7.11 ± 1.06 µM

Cc1cc(NC(=O)c2cccc(NC(=O)/C=C/CN(C)C)c2)ccc1Nc1nccc(-c2cccnc2)n1
remaining activity (JNK1; 1 µM; reference: control): 0%

Some of these lines once more (block 1):
CC(CCCCC(=O)Nc1ccc(C(F)(F)F)cc1)NCCc1cnc[nH]1 (centres unmarked): inactive
Cc1noc(NS(=O)(=O)c2ccc(N)cc2)c1C: inactive
Nc1c2c(nc3c1CCC3)CCCC2: inactive
